Measured values collected from several papers.
Compare with care: the assays were run in different laboratories.
Organism: Klebsiella pneumoniae

The MIC of CC1(C)CC[C@]2(C(=O)O)CC[C@]3(C)C(=CC[C@@H]4[C@@]5(C)CC[C@H](O)C(C)(C)[C@@H]5CC[C@]43C)[C@@H]2C1 is reported as 512 µg/mL (QD-KP2, NDM-1).
With C[C@H]1COc2c(N3CCN(C)CC3)c(F)cc3c(=O)c(C(=O)O)cn1c23 the MIC was 0.5 µg/mL (ATCC 700603 ESBL SHV-18).
For NCCCC1CN(c2ccc3c(n2)NC(=O)CO3)C(=O)O1 (stereo not drawn), the MIC was 160 µg/mL (ATCC 13883).
CC[C@H](C)[C@H](N)C(=O)N[C@@H](CCCNC(=N)N)C(=O)N[C@H](C(=O)N[C@@H](Cc1c[nH]c2ccccc12)C(=O)N[C@@H](Cc1c[nH]c2ccccc12)C(=O)N[C@@H](CCCCN)C(=O)N[C@H](C(=O)N[C@H](C(=O)N[C@@H](CCCNC(=N)N)C(=O)N[C@@H](CCCCN)C(=O)N[C@@H](Cc1c[nH]c2ccccc12)C(=O)N[C@@H](CCCCN)C(=O)N[C@@H](C)C(=O)N[C@H](C(=O)N[C@@H](Cc1c[nH]c2ccccc12)C(=O)N[C@@H](Cc1c[nH]cn1)C(N)=O)[C@@H](C)CC)C(C)C)[C@@H](C)CC)C(C)C gave an MIC of 50 µM (broth dilution; ATCC 700603).
CC[C@H](C)[C@H](NC(=O)[C@H](C)NC(=O)[C@H](CCCCN)NC(=O)[C@H](CCCNC(=N)N)NC(=O)[C@H](CCCCN)NC(=O)[C@H](CCCNC(=N)N)NC(=O)[C@H](CCCCN)NC(=O)[C@@H](N)CCCNC(=N)N)C(=O)N[C@@H](CO)C(=O)NCC(=O)N[C@@H](CO)C(=O)N[C@@H](CC(C)C)C(=O)N[C@H](C(=O)N[C@H](C(=O)N[C@@H](CC(C)C)C(=O)N[C@@H](Cc1ccccc1)C(=O)NCC(=O)N[C@@H](Cc1ccc(O)cc1)C(N)=O)[C@@H](C)O)C(C)C has an MIC of 16 µM (broth microdilution; ATCC 13883; highest value reported).
CC(=O)N[C@@H](CCCCN)C(=O)N[C@@H](CC(C)C)C(=O)N[C@@H](CC(C)C)C(=O)N[C@@H](CCCCN)C(=O)N[C@@H](CC(C)C)C(=O)N[C@@H](CC(C)C)C(=O)N[C@@H](CCCCN)C(=O)N[C@@H](CCCCN)C(=O)N1CCC[C@H]1C(=O)N[C@@H](CC(C)C)C(=O)N[C@@H](CCCCN)C(=O)N[C@@H](CC(C)C)C(=O)N[C@@H](CC(C)C)C(=O)N[C@@H](CCCCN)C(=O)N[C@@H](CCCCN)C(N)=O gave an MIC of greater than 80 µM (broth microdilution; ATCC 700603; 18 h, 37 °C, compound alone).
The MIC of CC[C@H](C)[C@H](NC(=O)[C@H](CCCCN)NC(=O)[C@H](Cc1c[nH]c2ccccc12)NC(=O)[C@H](Cc1c[nH]c2ccccc12)NC(=O)[C@H](CCCCN)NC(=O)[C@H](CCCCN)NC(=O)[C@H](CCCCN)NC(=O)[C@H](Cc1c[nH]c2ccccc12)NC(=O)[C@H](CCCCN)NC(=O)[C@H](CCCCN)NC(=O)[C@H](Cc1c[nH]c2ccccc12)NC(=O)[C@H](CCCCN)NC(=O)[C@H](CCCCN)NC(=O)[C@@H](NC(=O)[C@@H](NC(=O)[C@H](CCCCN)NC(=O)[C@@H](N)CCCNC(=N)N)[C@@H](C)CC)[C@@H](C)CC)C(=O)N[C@@H](Cc1c[nH]c2ccccc12)C(=O)N[C@@H](Cc1c[nH]c2ccccc12)C(=O)N[C@@H](CCCCN)C(=O)NCCOCCOCC(N)=O is reported as 1.9 µg/mL (broth microdilution; 10145).
With CC[C@H](C)CCCCC(=O)N[C@@H](CCN)C(=O)N[C@H](C(=O)N[C@@H](CCN)C(=O)N[C@H]1CCNC(=O)[C@H]([C@@H](C)O)NC(=O)[C@H](CCN)NC(=O)[C@H](CCN)NC(=O)[C@H](CC(C)C)NC(=O)[C@@H](CC(C)C)NC(=O)[C@H](CCN)NC1=O)[C@@H](C)O the MIC was 1 µg/mL (broth microdilution; ATCC 43816 ΔacrAB, cation-adjusted MHB).
With CC(C)Nc1nc(Cl)c2c(c1O)C(=O)C1=C(O)[C@]3(O)C(=O)C(C(N)=O)=C(O)[C@@H](N(C)C)[C@@H]3C[C@@H]1C2.Cl.Cl.Cl the MIC was greater than 32 µg/mL (tet(A)-carrying).
The MIC of O=C(N[C@H](CO)[C@H](O)c1ccc([N+](=O)[O-])cc1)C(Cl)Cl is reported as 4 µg/mL (broth microdilution; ATCC 43816 acrAB overexpressor; with: colistin 0.5 mg/L).
For COc1ccc2ccc(O)c(/C=N/[C@H]3CCCC[C@H]3/N=C/c3ccc(OCCN4CCCCC4)cc3O)c2c1, the MIC was greater than 40 µM (bacterial growth, broth microdilution; carbapenem-resistant).
For C[C@@H](O)[C@H]1C(=O)N2C(C(=O)O)=C(SCCN=CN)C[C@H]12, the MIC was 64 µM (NCCP 15866 carbapenem-resistant, Mueller-Hinton broth; 16 h, 37 °C).
CC(=O)N[C@@H](CCCCN)C(=O)N[C@@H](CCCCN)C(=O)N[C@@H](CC(C)C)C(=O)N[C@@H](CC(C)C)C(=O)N[C@@H](CCCCN)C(=O)N[C@@H](CC(C)C)C(=O)N[C@@H](CC(C)C)C(=O)N[C@@H](CCCCN)C(=O)N[C@@H](C)C(=O)N1CCC[C@H]1C(=O)N[C@@H](CC(C)C)C(=O)N[C@@H](CCCCN)C(=O)N[C@@H](CC(C)C)C(=O)N[C@@H](CC(C)C)C(=O)N[C@@H](CCCCN)C(N)=O gave an MIC of greater than 80 µM (broth microdilution; ATCC 700603; 18 h, 37 °C, compound alone).
The MIC of CN(C)[C@@H]1C(O)=C(C(N)=O)C(=O)[C@@]2(O)C(O)=C3C(=O)c4c(cnc(-c5ccccc5)c4O)C[C@H]3C[C@@H]12.Cl.Cl is reported as greater than 32 µg/mL (tet(A)-carrying).
CC[C@H](C)[C@H](NC(=O)[C@H](CC(C)C)NC(=O)[C@H](CCCCN)NC(=O)[C@@H](NC(=O)[C@H](C)NC(=O)[C@H](CCC(=O)O)NC(=O)[C@H](Cc1c[nH]cn1)NC(=O)[C@@H](NC(=O)[C@H](CCCCN)NC(=O)[C@H](CCC(N)=O)NC(=O)[C@H](Cc1ccccc1)NC(=O)[C@@H](NC(=O)[C@H](CCCCN)NC(=O)[C@@H](N)CCCCN)C(C)C)[C@@H](C)CC)[C@@H](C)CC)C(N)=O has an MIC of 128 µM (CLSI broth microdilution; ATCC 13883; 18 h, 37 °C).
CN(C)c1cc(NC(=O)CNC(C)(C)C)c(O)c2c1C[C@H]1C[C@H]3[C@H](N(C)C)C(O)=C(C(N)=O)C(=O)[C@@]3(O)C(O)=C1C2=O has an MIC of 2 µg/mL (broth microdilution; KPC-100 producing).
With CN(C)[C@@H]1C(O)=C(C(N)=O)C(=O)[C@@]2(O)C(O)=C3C(=O)c4c(O)cnc(Cl)c4C[C@H]3C[C@@H]12.Cl the MIC was greater than 32 µg/mL (tet(A)-carrying).
CC[C@H](C)[C@H](NC(=O)[C@H](Cc1ccc(O)cc1)NC(=O)[C@@H](NC(=O)[C@H](Cc1c[nH]c2ccccc12)NC(=O)[C@@H]1CCCN1C(=O)[C@@H](NC(=O)[C@H](C)N)[C@@H](C)CC)[C@@H](C)CC)C(=O)N[C@@H](Cc1ccc(O)cc1)C(=O)N[C@@H](CCCNC(=N)N)C(=O)N[C@@H](CC(C)C)C(=O)N[C@@H](CC(C)C)C(=O)N[C@@H](CCCNC(=N)N)C(=O)N[C@@H](CCCCN)C(=O)NCC(=O)O has an MIC of 15 µM (broth microdilution; ATCC 700603; 18 h, 37 °C).
CC(C)(O/N=C(\C(=O)N[C@@H]1C(=O)N2C(C(=O)[O-])=C(C[n+]3ccccc3)CS[C@H]12)c1csc(N)n1)C(=O)O gave an MIC of less than 0.5 µg/mL (broth microdilution; ATCC 43816 acrAB overexpressor).
CC(=O)N[C@@H](CCCCN)C(=O)N[C@@H](CCCCN)C(=O)N[C@@H](CC(C)C)C(=O)N[C@@H](CC(C)C)C(=O)N[C@@H](CCCCN)C(=O)N[C@@H](CC(C)C)C(=O)N[C@@H](CC(C)C)C(=O)N[C@@H](C)C(=O)N[C@@H](CCCCN)C(=O)N1CCC[C@H]1C(=O)N[C@@H](CC(C)C)C(=O)N[C@@H](CCCCN)C(=O)N[C@@H](CC(C)C)C(=O)N[C@@H](CC(C)C)C(=O)N[C@@H](CCCCN)C(N)=O has an MIC of greater than 80 µM (broth microdilution; ATCC 700603; 18 h, 37 °C, compound alone).
The MIC of CC1=C[C@@H]2CN(C(=O)N2OS(=O)(=O)O)[C@@H]1C(N)=O is reported as greater than 128 µg/mL (ATCC 700603, ESBL-positive; compound alone).
The MIC of C[C@@H](O)[C@H]1C(=O)N2C(C(=O)O)=C(SCCN=CN)C[C@H]12 is reported as 128 µg/mL (K4, after ceftazidime-avibactam induction; multistep mutant selection, avibactam 2731/4 mg/L).
CC[C@H](C)[C@H](NC(=O)[C@H](CCCCN)NC(=O)[C@H](CCCCN)NC(=O)[C@H](CCCCN)NC(=O)[C@H](CCCCN)NC(=O)[C@H](CCCCN)NC(=O)[C@@H](N)CCCCN)C(=O)N[C@@H](CO)C(=O)N[C@@H](Cc1ccccc1)C(=O)N[C@@H](CC(C)C)C(=O)NCC(=O)N[C@@H](CO)C(=O)N[C@@H](CCCCN)C(=O)N[C@H](C(=O)N[C@H](C(=O)N[C@H](C(=O)N[C@@H](CC(C)C)C(=O)N[C@@H](CC(C)C)C(=O)N[C@@H](CCCCN)C(=O)N[C@@H](CCCNC(=N)N)C(N)=O)C(C)C)C(C)C)C(C)C has an MIC of 8 µM (broth microdilution; ATCC 13883; highest value reported).
CC[C@H](C)[C@H](N)C(=O)N[C@@H](CC(C)C)C(=O)NCC(=O)N[C@H](CCCNC(=N)N)C(=O)N[C@H](C(=O)N[C@H](C(=O)N[C@@H](CCCCN)C(=O)NCC(=O)N[C@H](C(=O)N[C@@H](CCCCN)C(=O)N[C@@H](CC(=O)O)C(=O)N[C@H](C(=O)N[C@@H](CC(C)C)C(N)=O)[C@@H](C)CC)[C@@H](C)CC)C(C)C)[C@@H](C)CC has an MIC of 100 µM (broth microdilution; ATCC 27736, Mueller-Hinton broth; 16 h, 37 °C).

A few entries again:
The MIC of O=C(N[C@H](CO)[C@H](O)c1ccc([N+](=O)[O-])cc1)C(Cl)Cl is reported as 4 µg/mL (broth microdilution; ATCC 43816 acrAB overexpressor; with: colistin 0.5 mg/L).
For COc1ccc2ccc(O)c(/C=N/[C@H]3CCCC[C@H]3/N=C/c3ccc(OCCN4CCCCC4)cc3O)c2c1, the MIC was greater than 40 µM (bacterial growth, broth microdilution; carbapenem-resistant).
